# Measurements collected from several papers.
# A part holds a random share of what one study measured.

# Series 1 — method: protein-binding microarray; molecule type: double-stranded DNA, one strand shown; matrix: in vitro; tested at: 940 nM top; setting: 60-bp whole probe; together with: salmon DNA 0.4 mg/ml; baseline: random background probes; reading: higher = stronger binding; shared flanks, not repeated: GCCTAGCAC … GTCTTGATTCGCTTGACGCTGCTG
# Target: Interferon regulatory factor 5, full length, phosphomimetic (IRF5, Homo sapiens, UniProt Q13568-2, residues 1-514, S451D/S453D/S456D/S462D)
Strand,fitted relative affinity [z-score]
GACTGACTGGGGACTGGGGACGTGCTA,-0.19
TTTGGACTGGGGACTGGGTTAGTGCTA,-0.207
AGGCATCTCGGAGATCTCGAAGTGCTA,-0.47
TTAGAACAGGGGTATCGATTAGTGCTA,2.75
GACGTTTTCCTTTTCCTGACGTGCTAG,1.48
ATAGAACTGGGGTATCGATTAGTGCTA,2.9
AGAGTAAATTAAGTTAGAACGTGCTAG,-0.363
ACCTGAGTCCCTATCTCCTCGTGCTAG,0.335
GACGAACTGAGTCTCTAGACGTGCTAG,-0.547
GACGATATCGGGTATCGGGACGTGCTA,1.08
TTAGATCTCAGTTTCGATTAGTGCTAG,8.63
TTAGAAATCGGGACTGGATTAGTGCTA,-0.398
GACGATTCCAGTTCCGAGACGTGCTAG,0.914
TTAGATATCTGGTATCGATTAGTGCTA,5
TACGGACTGCTTTTCCTGACGTGCTAG,-0.26
TTAGAACTGGGTTTCGGTTAGTGCTAG,6.52
TTAGGACTGGACTATCGGTAAGTGCTA,-0.327
GATGGCCTCTTGCTCAGCCCGTGCTAG,-0.547
TTAGGTATCGGTTTGGGTTAGTGCTAG,10
GACGGACTGGGTAGCGGGACGTGCTAG,-0.367
GACAGTATCCTTATCCTGACGTGCTAG,0.494
GACGGTATCCTTATCCTGGCGTGCTAG,0.577
GACGATCACAGACTGGAGACGTGCTAG,-0.433
TCATATCTGTGTTATTAAACTGTGCTA,0.798
GACGATTTCAGTTTCGAGAAGTGCTAG,4.56

# Series 2 — method: competition protein-binding microarray; molecule type: double-stranded DNA, one strand shown; matrix: in vitro; tested at: 2 µM; together with: Pho4 competitor, 0.05 µM; reading: higher = stronger binding
# Target: Centromere-binding protein 1, full length, His-tagged (CBF1, Saccharomyces cerevisiae, UniProt P17106, residues 1-351)
# Chain of UniProt P17106 (whole entry, looked up): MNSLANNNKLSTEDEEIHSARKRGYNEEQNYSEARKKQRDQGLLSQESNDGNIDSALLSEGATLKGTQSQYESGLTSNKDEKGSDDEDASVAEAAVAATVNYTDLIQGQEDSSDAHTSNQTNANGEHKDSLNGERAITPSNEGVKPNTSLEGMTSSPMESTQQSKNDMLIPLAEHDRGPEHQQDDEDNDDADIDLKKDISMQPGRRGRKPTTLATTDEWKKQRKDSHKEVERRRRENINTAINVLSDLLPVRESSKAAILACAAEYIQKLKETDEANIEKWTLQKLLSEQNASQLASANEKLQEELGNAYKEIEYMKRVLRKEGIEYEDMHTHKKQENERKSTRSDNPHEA
# Setting: whole 60-bp probe, lowest competitor level
Strand,fluorescence intensity [a.u.]
GGCGTTTCTGATCTTCATGTGGTCGGAGTGGAATTCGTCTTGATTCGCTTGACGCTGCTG,84.7
TTTTCTTGGTCAAGGTCTGTGATATCCCCTTCCGGTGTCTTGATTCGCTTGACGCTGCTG,59.7
AAAGCGGTAATTTTTCACGTGGGCTCACATATCTATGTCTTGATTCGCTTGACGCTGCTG,862
GTAATATAGCTTTGCCACGTGCGATTTTTGGGGATAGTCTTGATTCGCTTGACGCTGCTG,1370
TAAGAAAATACCGGTCATATGACAACAGAGACAAGAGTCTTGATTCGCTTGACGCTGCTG,669
AAAGCGGTAATTTGTACTGTGGGTGCAGATATCTATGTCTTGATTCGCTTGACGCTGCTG,79.1
ATATCTCATGTAACAAACGTGAAAAAAGCGATGATTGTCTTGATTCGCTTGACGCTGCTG,137
GTCTTAATAGAAGGACACGTGGAATCTAAGGACGGAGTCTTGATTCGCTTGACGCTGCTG,944
GAAAGTACGAATTACCACGTCACTGTCATTTAGGTTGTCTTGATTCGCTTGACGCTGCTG,86.6
AAATTACTAAGTTGGCACGTGGGTGACGCCGTATGAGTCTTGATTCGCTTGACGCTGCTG,1160
CGGGGTTAAGTTTGAGACGTGGGTGGCTTGCAGCAGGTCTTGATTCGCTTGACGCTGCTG,77.1
CGGGGTTAAGTTTCACACGTGTTTTGCTTGCAGCAGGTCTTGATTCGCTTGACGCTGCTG,678
TTGTTGATCCTGGTAGGCGTGGCCGTACCGCCATTGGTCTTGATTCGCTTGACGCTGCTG,50.5
AAGGTGGAACGATTCCACGTGGATTGTCTAAACTGTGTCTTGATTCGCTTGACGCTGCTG,466
GATGAGGCCCTTATGTACGTGCAAATATATGTGCGAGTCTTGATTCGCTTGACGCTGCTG,85.8
TTGCTCACTTTCTAATACGTGCAAACCTTTACAAGCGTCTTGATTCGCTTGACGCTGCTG,71.9
CGGGCGTATTGAGCCCTCGTGCTGTCTGGATGCACCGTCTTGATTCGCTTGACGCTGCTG,102
CTTCTGTAAATTTGCCTTGTGGGTGGACGCGCCCCGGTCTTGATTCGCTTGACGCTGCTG,84.4

# Series 3 — method: protein binding microarray; molecule type: double-stranded DNA, one strand shown; matrix: in vitro; tested at: not given; baseline: not given; reading: higher = stronger binding
# Target: Histone acetyltransferase KAT6A, winged helix 2, GST fusion (KAT6A, Homo sapiens, UniProt Q92794, residues 85-181)
# Setting: 8-mer, flanks averaged, mean of 2 arrays, mostly near background
# Residues (chain): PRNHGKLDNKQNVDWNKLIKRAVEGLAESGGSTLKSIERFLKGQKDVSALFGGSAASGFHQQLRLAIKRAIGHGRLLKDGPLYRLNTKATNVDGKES
Strand,E-score
CATTAATG,0.0247
ACGTTCGG,-0.275
ACTTCGAC,0.0838
AAATCGGT,-0.0379
CTGAGCAA,0.0252
ATAGTTGG,-0.0993
GACGTAAA,0.0158
GAAGACGA,0.109
CGTCTTGA,0.105
CTGTCTCA,-0.117
CTTCCGGC,0.229
GATTAACA,0.0835
CTTTGAAC,0.0526
CCTTCACG,0.0166
AACCGCAT,0.156
ATTAAGTG,0.11
ACGTGAAG,-0.124
ATATCGAA,0.107
AATATACT,-0.179
AACTTAGC,-0.0336
AGCCGCAC,0.157

# Series 4 — method: universal PBM; molecule type: double-stranded DNA, one strand shown; matrix: in vitro; tested at: not given; reading: higher = stronger binding
# Target: Sal-like protein 4, full length isoform B (SALL4, Homo sapiens, UniProt Q9UJQ4-2, residues 1-616)
# Setting: 8-mer, flanks averaged, mean of replicates
Strand,E-score
CCCCATCC,-0.178
AAACAACG,0.0893
CGAGTTTA,-0.0655
AGTGACGA,0.0912
CACCTGTC,-0.16
GGTTAACC,-0.192
AGAAAATG,0.126
CCATCTCA,-0.159
GGTGGACA,-0.107
CGCAAAAA,0.214
CACGCCGG,-0.249
ACCGCGCC,-0.308
CCGAGTAA,0.0685
GGCGAAAA,0.0599
CCGAGAGG,-0.146
TACCTGAA,0.2
ATGGGAGA,0.0748
CTAGGCTA,-0.101
ACCGATCC,-0.264
ATGAGAAC,0.15
GACTTGGA,-0.0992
ATAGGCGA,0.0303
CGGCCACC,-0.274
TTAACCAA,0.124
CCAGAGAG,-0.243

# Series 5 — method: RNA Bind-n-Seq; molecule type: RNA; matrix: in vitro; tested at: 1 µM; setting: whole 134-nt RNA, ends assumed; together with: 150 mM KCl; baseline: input library; reading: higher = stronger binding
# Target: Ras GTPase-activating protein-binding protein 1, C-terminal RGG region (G3BP1, Homo sapiens, UniProt Q13283)
# Chain of UniProt Q13283 (whole entry, looked up): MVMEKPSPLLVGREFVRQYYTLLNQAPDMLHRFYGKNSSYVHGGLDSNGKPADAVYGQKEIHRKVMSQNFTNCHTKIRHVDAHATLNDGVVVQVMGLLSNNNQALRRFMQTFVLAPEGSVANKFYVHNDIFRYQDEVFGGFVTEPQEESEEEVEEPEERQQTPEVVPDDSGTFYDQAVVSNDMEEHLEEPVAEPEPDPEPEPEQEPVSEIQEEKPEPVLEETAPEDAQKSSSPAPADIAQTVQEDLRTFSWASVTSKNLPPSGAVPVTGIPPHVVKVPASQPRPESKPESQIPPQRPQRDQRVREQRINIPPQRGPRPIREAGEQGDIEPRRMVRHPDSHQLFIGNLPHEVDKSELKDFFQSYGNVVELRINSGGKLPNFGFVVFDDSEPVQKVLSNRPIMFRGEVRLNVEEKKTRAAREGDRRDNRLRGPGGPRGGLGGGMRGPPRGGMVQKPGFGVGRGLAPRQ
Strand,log2 enrichment
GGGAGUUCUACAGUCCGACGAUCAGUCCUGUGCUACACAUCGUAUGUACCGAAUCGGGCCCCCGGCCCCCGGGCCCCCGGGAAAGUAUUAUGUUACGCCGUUCGGAUCUGCACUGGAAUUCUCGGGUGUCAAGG,-2.24
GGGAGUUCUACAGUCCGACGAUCUGGUCAUGGGAUGGAGAACCAGUUCUUCCCUUAUAUCUUCACCAUAUGACUAUUGACCCUGUCUUAGGCUGCUCCCAGGCCGUUCCAUUGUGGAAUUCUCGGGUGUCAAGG,0.692
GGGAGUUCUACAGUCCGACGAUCGUCCUGUGCUACACAUCGUAUGUACCGAAUCGGGGUUUGGGGAGGGGAAAAAAAGGGGAAAGUAUUAUGUUACGCCGUUCGGAUCUGCACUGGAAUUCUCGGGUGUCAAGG,1.4
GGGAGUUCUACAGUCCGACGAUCGGAUCAAAGCAAGUUGGAGAAACAUCAGCACCUGGAGACACCUUAGAUGGCACACCUCGUACUCUCAAUACUGUCUUUGAUUUCCCACCAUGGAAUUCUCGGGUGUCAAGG,-0.0574
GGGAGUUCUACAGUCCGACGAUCGUCCUGUGCUACACAUCGUAUGUACCGAAUCGGGGCCCCCGGCCCCCGGGCCCCCGGGAAAGUAUUAUGUUACGCCGUUCGGAUCUGCACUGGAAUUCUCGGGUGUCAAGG,-1.48
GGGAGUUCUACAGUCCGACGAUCCACAGACAACACGCACCCACACAGACACAGAGGGAAGGGGUUGGGAUGGGGACAGGGUGCACAGCAGGGCGGGGUAGGACCCAAACCCCUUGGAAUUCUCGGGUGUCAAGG,-0.299
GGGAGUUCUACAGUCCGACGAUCUAACUUUAGAGGAGGAUCUGAUGGAUAUGGCAGUGGACGUGGAUUUGGGGAUGGCUAAAAUGGGUAUGGAGGAGGACCUGGAGGUGGCAAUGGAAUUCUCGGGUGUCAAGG,-0.499
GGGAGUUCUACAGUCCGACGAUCUCAAGUCCUGUGCUACACAUCGUAUGUACCGAAUCGGGGAAAGGGAAAGGAAAGGAAAGUAUUAUGUUACGCCGUUCGGAUCUGCACUUCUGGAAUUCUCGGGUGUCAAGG,-1.7
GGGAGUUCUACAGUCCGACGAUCGCAGGAAGUAAAAACAAAUGGAAAUGCUUCGGAUAGUGGCAGGGGUGGGGGUUGCUAAGGAAAGGGUGAGAUGGGAGUGGGUAAAGAGUUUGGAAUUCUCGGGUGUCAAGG,1.84
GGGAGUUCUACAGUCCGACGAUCGAUGAUUACUAUGGUUAUGAUUAUCACGACUAUCGUGGAGGCUAUGAAGAUCCCUACUACGGCUAUGAUGAUGGCUAUGCAGUAAGAGGAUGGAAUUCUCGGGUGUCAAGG,-2.02
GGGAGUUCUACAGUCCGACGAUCUGGCCCUGGUGGCAUGCGGGGAGGAAGAGGUGGCCUCAUGGAUCGUGGUGGUCCCGGUGGAAUGUUCAGAGGUGGCCGUGGUGAAGACAGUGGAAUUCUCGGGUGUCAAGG,3.15
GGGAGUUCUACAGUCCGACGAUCCAAGUCCUGUGCUACACAUCGUAUGUACCGAAUCGGGUGGGAAAGGGAAAAAGGGAAAGUAUUAUGUUACGCCGUUCGGAUCUGCACUUCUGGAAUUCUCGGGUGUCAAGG,1.06
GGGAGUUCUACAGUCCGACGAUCUGGGAGGUGGAUUUUGUUUAUUUUUUUAGCUCAUUUCCAGGGGUGGGAAUUUUUUUUUAAUAUGUGUCAUGAAGAAAGUUGUUUUUGAAAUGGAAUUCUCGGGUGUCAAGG,1.39
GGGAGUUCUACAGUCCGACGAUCGUCCUGUGCUACACAUCGUAUGUACCGAAUCGGGGUUUGGGGAAAGGGGAAAAAGGGGAAAGUAUUAUGUUACGCCGUUCGGAUCUGCACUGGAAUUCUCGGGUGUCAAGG,2.57

# Excerpt of the above (series 2):
Strand,fluorescence intensity [a.u.]
CGGGCGTATTGAGCCCTCGTGCTGTCTGGATGCACCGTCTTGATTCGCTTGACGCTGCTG,102
GGCGTTTCTGATCTTCATGTGGTCGGAGTGGAATTCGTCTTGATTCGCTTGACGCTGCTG,84.7
AAGGTGGAACGATTCCACGTGGATTGTCTAAACTGTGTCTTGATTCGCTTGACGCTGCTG,466
GTCTTAATAGAAGGACACGTGGAATCTAAGGACGGAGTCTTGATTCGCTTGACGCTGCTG,944
GAAAGTACGAATTACCACGTCACTGTCATTTAGGTTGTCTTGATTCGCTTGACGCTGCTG,86.6
ATATCTCATGTAACAAACGTGAAAAAAGCGATGATTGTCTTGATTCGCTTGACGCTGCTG,137
